Measured values from different studies.
Each line is one published result; not all experiments were run side by side. Several values in a cell are separate wells, animals, samples, runs or records. Numbers after ± are the reported error.
Chain of UniProt P27487 (whole entry, looked up): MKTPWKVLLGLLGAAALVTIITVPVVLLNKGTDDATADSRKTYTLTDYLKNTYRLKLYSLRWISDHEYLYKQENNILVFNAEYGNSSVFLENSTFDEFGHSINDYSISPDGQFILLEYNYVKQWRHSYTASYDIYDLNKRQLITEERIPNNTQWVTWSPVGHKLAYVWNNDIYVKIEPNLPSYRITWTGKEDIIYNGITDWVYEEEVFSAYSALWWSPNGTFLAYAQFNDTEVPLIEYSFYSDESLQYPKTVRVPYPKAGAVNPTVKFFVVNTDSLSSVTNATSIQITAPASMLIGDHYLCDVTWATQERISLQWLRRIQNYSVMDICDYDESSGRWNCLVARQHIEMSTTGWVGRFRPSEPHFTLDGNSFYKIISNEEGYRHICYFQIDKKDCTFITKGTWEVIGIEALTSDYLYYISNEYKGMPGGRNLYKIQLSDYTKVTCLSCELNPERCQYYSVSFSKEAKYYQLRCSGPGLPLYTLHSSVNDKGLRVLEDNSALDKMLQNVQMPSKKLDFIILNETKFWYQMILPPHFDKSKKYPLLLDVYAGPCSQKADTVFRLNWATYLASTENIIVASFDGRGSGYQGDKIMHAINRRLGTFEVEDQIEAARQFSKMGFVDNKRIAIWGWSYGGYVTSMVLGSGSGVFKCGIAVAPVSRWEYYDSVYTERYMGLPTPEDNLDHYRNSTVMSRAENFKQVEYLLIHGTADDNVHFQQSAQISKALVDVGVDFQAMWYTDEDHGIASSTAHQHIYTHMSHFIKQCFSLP
Chain of UniProt O75469 (whole entry, looked up): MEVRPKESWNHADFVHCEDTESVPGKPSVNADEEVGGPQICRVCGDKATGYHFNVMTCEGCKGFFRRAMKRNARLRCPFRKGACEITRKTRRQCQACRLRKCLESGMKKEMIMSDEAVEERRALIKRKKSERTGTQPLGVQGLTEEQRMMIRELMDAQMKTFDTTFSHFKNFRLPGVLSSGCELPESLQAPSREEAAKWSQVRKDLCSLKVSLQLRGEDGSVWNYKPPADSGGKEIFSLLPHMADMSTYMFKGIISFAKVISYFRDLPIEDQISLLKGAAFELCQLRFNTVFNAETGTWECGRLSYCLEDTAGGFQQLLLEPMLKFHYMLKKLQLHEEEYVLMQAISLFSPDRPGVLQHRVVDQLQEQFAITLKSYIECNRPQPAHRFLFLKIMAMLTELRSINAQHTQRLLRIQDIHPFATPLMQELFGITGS
Chain of UniProt Q0QF01 (whole entry, looked up): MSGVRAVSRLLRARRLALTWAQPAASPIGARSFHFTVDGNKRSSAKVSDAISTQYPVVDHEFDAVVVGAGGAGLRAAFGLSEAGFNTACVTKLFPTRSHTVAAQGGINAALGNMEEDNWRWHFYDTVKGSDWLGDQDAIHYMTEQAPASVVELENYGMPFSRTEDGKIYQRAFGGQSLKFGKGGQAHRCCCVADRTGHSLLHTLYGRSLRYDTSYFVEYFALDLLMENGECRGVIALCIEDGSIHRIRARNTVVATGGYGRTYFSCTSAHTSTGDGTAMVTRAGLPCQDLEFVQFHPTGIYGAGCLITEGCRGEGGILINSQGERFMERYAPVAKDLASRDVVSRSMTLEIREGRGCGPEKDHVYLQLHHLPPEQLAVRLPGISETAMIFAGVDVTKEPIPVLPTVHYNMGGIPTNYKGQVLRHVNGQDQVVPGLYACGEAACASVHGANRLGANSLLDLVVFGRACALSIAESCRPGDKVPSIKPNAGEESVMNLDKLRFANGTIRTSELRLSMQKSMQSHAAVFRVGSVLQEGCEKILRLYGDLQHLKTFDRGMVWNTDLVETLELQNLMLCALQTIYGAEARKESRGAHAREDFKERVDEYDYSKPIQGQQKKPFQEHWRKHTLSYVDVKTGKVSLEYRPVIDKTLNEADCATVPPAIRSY
Chain of UniProt Q96SB4 (whole entry, looked up): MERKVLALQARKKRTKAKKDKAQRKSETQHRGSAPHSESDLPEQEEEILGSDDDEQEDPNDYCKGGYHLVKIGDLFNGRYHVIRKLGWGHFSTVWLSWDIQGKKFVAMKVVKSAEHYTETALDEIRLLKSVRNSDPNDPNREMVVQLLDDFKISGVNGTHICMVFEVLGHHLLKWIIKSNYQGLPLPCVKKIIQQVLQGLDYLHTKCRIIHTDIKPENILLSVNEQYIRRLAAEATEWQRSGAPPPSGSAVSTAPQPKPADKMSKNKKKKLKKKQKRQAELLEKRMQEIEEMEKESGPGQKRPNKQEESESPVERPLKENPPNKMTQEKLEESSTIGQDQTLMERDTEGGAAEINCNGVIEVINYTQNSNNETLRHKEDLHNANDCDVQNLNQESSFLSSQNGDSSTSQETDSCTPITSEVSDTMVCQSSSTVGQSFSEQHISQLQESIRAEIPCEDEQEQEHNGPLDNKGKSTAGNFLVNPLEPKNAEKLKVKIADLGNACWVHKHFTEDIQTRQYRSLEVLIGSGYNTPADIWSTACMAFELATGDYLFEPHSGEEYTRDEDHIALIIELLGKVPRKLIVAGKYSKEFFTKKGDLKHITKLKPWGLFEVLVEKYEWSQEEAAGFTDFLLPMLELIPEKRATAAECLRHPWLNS
Chain of UniProt Q6P2P2 (whole entry, looked up): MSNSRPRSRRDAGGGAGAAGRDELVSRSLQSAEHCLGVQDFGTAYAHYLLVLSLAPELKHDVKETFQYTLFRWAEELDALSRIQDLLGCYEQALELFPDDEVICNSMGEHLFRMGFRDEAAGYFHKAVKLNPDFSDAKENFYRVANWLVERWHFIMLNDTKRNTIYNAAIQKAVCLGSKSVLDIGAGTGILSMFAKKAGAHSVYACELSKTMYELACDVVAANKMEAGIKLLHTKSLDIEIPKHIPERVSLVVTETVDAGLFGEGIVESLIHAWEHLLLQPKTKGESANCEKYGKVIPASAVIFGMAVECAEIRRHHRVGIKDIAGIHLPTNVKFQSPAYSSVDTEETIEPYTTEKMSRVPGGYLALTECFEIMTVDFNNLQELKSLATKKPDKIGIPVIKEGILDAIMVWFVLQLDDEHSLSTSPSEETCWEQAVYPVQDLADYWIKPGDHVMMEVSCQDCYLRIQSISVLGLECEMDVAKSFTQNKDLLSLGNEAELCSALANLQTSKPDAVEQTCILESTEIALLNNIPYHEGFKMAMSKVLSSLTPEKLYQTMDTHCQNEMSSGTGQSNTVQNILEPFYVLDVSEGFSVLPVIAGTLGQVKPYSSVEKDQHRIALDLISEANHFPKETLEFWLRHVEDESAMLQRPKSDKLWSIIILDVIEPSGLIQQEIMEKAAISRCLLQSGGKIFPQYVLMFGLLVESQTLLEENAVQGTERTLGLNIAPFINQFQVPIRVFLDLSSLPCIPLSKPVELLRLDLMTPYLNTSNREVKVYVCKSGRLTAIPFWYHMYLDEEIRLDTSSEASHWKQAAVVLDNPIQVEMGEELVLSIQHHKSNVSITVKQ
Chain of UniProt P26718 (whole entry, looked up): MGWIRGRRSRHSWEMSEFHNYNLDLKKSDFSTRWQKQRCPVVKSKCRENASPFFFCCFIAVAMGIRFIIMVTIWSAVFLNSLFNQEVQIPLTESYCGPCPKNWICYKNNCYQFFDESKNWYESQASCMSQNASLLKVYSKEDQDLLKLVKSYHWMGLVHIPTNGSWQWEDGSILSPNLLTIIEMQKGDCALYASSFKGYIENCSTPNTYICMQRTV
Chain of UniProt Q9H4M9 (whole entry, looked up): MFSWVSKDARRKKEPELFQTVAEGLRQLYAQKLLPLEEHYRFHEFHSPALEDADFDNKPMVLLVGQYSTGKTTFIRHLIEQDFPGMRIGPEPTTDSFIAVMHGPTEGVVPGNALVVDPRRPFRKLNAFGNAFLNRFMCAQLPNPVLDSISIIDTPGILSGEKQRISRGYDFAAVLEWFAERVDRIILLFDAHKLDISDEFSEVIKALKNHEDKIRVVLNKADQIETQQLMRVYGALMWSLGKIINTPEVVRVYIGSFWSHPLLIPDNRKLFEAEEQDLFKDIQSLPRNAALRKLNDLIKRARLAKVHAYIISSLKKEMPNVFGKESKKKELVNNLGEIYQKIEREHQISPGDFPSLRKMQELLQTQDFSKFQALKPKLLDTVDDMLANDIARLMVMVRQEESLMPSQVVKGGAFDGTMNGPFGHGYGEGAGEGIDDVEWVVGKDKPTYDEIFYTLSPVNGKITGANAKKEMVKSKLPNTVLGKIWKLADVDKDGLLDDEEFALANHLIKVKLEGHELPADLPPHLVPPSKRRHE
Chain of UniProt P53350 (whole entry, looked up): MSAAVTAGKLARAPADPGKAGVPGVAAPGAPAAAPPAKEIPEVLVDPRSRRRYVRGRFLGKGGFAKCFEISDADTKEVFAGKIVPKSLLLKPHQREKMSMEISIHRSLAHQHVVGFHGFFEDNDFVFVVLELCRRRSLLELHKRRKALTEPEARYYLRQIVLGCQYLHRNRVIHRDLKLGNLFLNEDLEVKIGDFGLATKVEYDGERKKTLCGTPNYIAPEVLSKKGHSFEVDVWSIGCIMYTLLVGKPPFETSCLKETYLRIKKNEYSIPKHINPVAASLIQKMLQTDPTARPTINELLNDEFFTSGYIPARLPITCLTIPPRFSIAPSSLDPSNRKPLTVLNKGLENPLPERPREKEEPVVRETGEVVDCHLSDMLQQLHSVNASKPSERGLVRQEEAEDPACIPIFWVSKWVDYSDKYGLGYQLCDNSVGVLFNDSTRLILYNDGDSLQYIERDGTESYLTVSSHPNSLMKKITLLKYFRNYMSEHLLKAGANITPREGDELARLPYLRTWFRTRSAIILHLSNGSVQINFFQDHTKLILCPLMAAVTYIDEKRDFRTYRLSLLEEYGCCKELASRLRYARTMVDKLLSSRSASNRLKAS
Chain of UniProt A5GZW8 (whole entry, looked up): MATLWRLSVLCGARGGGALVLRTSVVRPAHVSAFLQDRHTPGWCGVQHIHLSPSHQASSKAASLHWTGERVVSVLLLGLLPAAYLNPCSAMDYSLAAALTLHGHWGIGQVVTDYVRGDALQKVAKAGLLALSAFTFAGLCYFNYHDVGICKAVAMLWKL

| Compound | target | test | system | conditions | IC50 |
| --- | --- | --- | --- | --- | --- |
| NC(=O)C1CN1S(=O)(=O)c1ccc(C(F)(F)F)cc1 (centres unmarked) | Protein disulfide-isomerase A3 (PDIA3, Homo sapiens, UniProt P30101) | enzyme activity, inhibitor, absorbance | – | pH 7.6 | > 200 µM |
| COc1cc(/C=C(\C#N)C(=O)Nc2nnc(C(F)(F)F)s2)ccc1OC(=O)N1CCN(C(=O)CCCC(=O)NCCCC[C@@H]2NC(=O)[C@@H](Cc3ccc(O)cc3)NC(=O)[C@H](CC(=O)O)NC(=O)CNC(=O)[C@H](CCCNC(=N)N)NC2=O)CC1 | SRSF protein kinase 1 (SRPK1, Homo sapiens, UniProt Q96SB4) | enzyme activity, inhibitor, radiometric | – | – | > 100 µM |
| COc1ccc2nc(C)cc(OCC(=O)Nc3ccccc3OC)c2c1 | Cytochrome P450 2C9 (CYP2C9, Homo sapiens, UniProt P11712) | inhibitor | – | – | 0.6 µM |
| CCC1=CC2CN3CCc4c([nH]c5ccccc45)C(C(=O)OC)(C2)C13 (centres unmarked) | Nuclear receptor subfamily 1 group I member 2 (NR1I2, Homo sapiens, UniProt O75469) | – | – | – | 20.5 µM |
| c1cc2c(cc1[C@H]1OC[C@@H]3[C@H]1CO[C@H]3c1ccc3c(c1)OCO3)OCO2 | 3-mercaptopyruvate sulfurtransferase (MPST, Homo sapiens, UniProt P25325) | enzyme activity, inhibitor | – | – | 19.1 µM |
| NC[C@@H]1O[C@H](O[C@H]2[C@@H](O)[C@H](O[C@@H]3[C@@H](O)[C@H](N)C[C@H](N)[C@H]3O[C@H]3O[C@H](CN)[C@@H](O)[C@H](O)[C@H]3N)O[C@@H]2Cn2cc(CCCc3cn(C[C@H]4O[C@@H](O[C@@H]5[C@@H](O)[C@H](N)C[C@H](N)[C@H]5O[C@H]5O[C@H](CN)[C@@H](O)[C@H](O)[C@H]5N)[C@H](O)[C@@H]4O[C@H]4O[C@@H](CN)[C@@H](O)[C@H](O)[C@H]4N)nn3)nn2)[C@H](N)[C@@H](O)[C@@H]1O | HIV-1 TAR RNA | ethidium displacement | – | pH 6.8 | 0.052 µM |
| CC(=O)N[C@@H](CC(C)C)C(=O)N[C@@H](CCC(=O)O)C(=O)N[C@@H](CO)C(=O)N[C@@H](CC(=O)O)C(=O)CCl | Caspase-6 (CASP6, Homo sapiens, UniProt P55212) | enzyme activity, inhibitor, fluorescence | – | – | 5.08 µM |
| CC(C)C[C@H](NC(=O)[C@@H](N)CCCCN)C(=O)NCC(=O)NCC(=O)NCC(=O)N[C@@H](CCC(N)=O)C(=O)N[C@@H](Cc1ccc(O)cc1)C(=O)NCC(=O)N[C@@H](CCC(=O)O)C(=O)O | HLA class I histocompatibility antigen, A alpha chain, allele A*68:01 (Homo sapiens, UniProt P04439) | peptide binding, competitive radioligand binding | – | room temperature, HLA-A*6801 allele, with: radiolabelled probe peptide | 4.21 µM |
| CC[C@H](C)[C@H](NC(=O)[C@H](Cc1ccccc1)NC(=O)[C@@H](NC(=O)[C@@H](NC(=O)[C@H](CO)NC(=O)[C@H](CO)NC(=O)[C@@H](NC(=O)[C@H](CCSC)NC(=O)[C@@H](N)CCC(N)=O)C(C)C)C(C)C)[C@@H](C)O)C(=O)O | HLA class I histocompatibility antigen, A alpha chain, allele A*02:01 (Homo sapiens, UniProt P04439) | binding, competitive radioligand binding | – | 48 h, 37 °C, with: radiolabelled FLPSDYFPSV 1 nM | < 0.2 µM |
| CC[C@@H]1C(=O)N(C)c2cnc(Nc3ccc(C(=O)NCCCC[C@H](NC(=O)[C@@H](NC(=O)[C@H](CO)NC(=O)[C@H](Cc4cncn4CCCCCCCCc4ccccc4)NC(=O)[C@H](CC(C)C)NC(=O)[C@@H]4CCCN4C(C)=O)[C@@H](C)OP(=O)(O)O)C(N)=O)cc3OC)nc2N1C1CCCC1 | Serine/threonine-protein kinase PLK1 (PLK1, Homo sapiens, UniProt P53350) | enzyme activity, inhibitor | – | – | 0.0049 µM |
| CC(C)C[C@H](NC(=O)[C@H](CC(C)C)NC(=O)[C@H](C)NC(=O)[C@H](CO)NC(=O)[C@H](CC(=O)O)NC(=O)[C@H](CCC(=O)O)NC(=O)[C@@H]1CCCN1C(=O)[C@H](CC(=O)O)NC(=O)[C@H](CCC(=O)O)NC(=O)[C@@H]1CCCN1C(=O)[C@@H](NC(=O)[C@@H](N)CC(C)C)C(C)C)C(=O)O | HLA-DRA/HLA-DRB3 (Homo sapiens, UniProt P01903+P79483) | binding, competition binding | purified HLA-DR | 48 h, with: radiolabelled probe peptide 0.1-1 nM | > 5 µM |
| CC(=O)CCC1C(=O)NC(C(C)C)C(=O)NC(Cc2cccc(O)c2)C(=O)N2CCCC(N2)C(=O)OC(C(C)=CC=CC(=O)N2CCCCO2)CC=CC=CC(O)C(C)C1O (centres unmarked) | ATP-dependent translocase ABCB1 (ABCB1, Homo sapiens, UniProt P08183) | P-glycoprotein transport, inhibitor | MDR1-MDCK | 60 min, pH 7.4, with: loperamide 5 µM | > 50 µM |
| CC(C)C[C@H](NC(=O)[C@H](C)NC(=O)[C@H](CC(N)=O)NC(=O)[C@H](CCC(=O)O)NC(=O)[C@H](CCCCN)NC(=O)CNC(=O)CNC(=O)CNC(=O)[C@H](CCCNC(=N)N)NC(=O)[C@H](CCCNC(=N)N)NC(=O)[C@H](CCCNC(=N)N)NC(=O)[C@H](CCCNC(=N)N)NC(=O)[C@H](CCCNC(=N)N)NC(=O)[C@H](CCCNC(=N)N)NC(=O)[C@H](CCCNC(=N)N)NC(=O)[C@H](CCCNC(=N)N)NC(=O)[C@@H](N)CCCNC(=N)N)C(=O)N[C@@H](CC(C)C)C(=O)N[C@@H](CCCNC(=N)N)C(=O)N[C@@H](Cc1ccc(O)cc1)C(=O)N[C@@H](CC(C)C)C(=O)N[C@@H](CC(C)C)C(=O)N[C@@H](CC(=O)O)C(=O)N[C@@H](CCCCN)C(=O)N[C@@H](CC(=O)O)C(N)=O | Vitamin D3 receptor (VDR, Homo sapiens, UniProt P11473) | reporter gene, antagonist, dual-luciferase | MCF7 | 16 h, with: calcitriol 30 nM | 2.03 ± 0.29 µM |
| CC(=O)N[C@@H](CCCNC(=N)N)C(=O)N[C@@H](Cc1ccc(O)cc1)C(=O)N[C@H]1CCCNC(=N)NC(=O)NCCCCNC(=O)[C@H](Cc2ccc(O)cc2)NC(=O)[C@H](CCCNC(=N)N)NC(=O)[C@H](CC(C)C)NC1=O | Neuropeptide Y receptor type 4 (NPY4R, Homo sapiens, UniProt P50391) | β-arrestin 1 recruitment, antagonist | HEK293T | with: 3 nM human pancreatic polypeptide | 5.39 ± 1.63 µM |
| CC(C)C[C@H](NC(=O)CNC(=O)[C@@H](N)Cc1c[nH]c2ccccc12)C(=O)N1CCC[C@H]1C(=O)O | Dipeptidyl peptidase 4 (DPP4, Homo sapiens, UniProt P27487) | enzyme activity, inhibitor, absorbance | – | – | 263 µM and < 300 µM |
| N#Cc1cn([C@@H]2O[C@H](CSCC[C@H](N)C(=O)O)[C@@H](O)[C@H]2O)c2ncnc(N)c12 | Protein arginine N-methyltransferase 9 (PRMT9, Homo sapiens, UniProt Q6P2P2) | enzyme activity, inhibitor, radiometric | – | – | 39 µM |
| CC(=O)C(NC(=O)c1ccccc1-c1ccc(C(F)(F)F)cc1)c1cccc(C(F)(F)F)c1 (centres unmarked) | NKG2-D type II integral membrane protein, with ULBP6 (KLRK1, Homo sapiens, UniProt P26718) | ligand binding, inhibitor, TR-FRET | HEK293 expressing NKG2D and DAP10 | with: ULBP6-AF647 | > 20 µM |
| O=C(Nc1ccccc1Nc1ccccc1)c1cccnc1Cl | Succinate dehydrogenase complex (Sus scrofa, UniProt A5GZW8+D0VWV4+Q007T0+Q0QF01) | enzyme activity, inhibitor, double-antibody sandwich ELISA | – | – | 3.18 µM |
| CC(=O)SC[C@@H](C)C(=O)Nc1ccccc1-c1nn[nH]n1 | Metallo-beta-lactamase type 2 (Serratia marcescens, UniProt P52699) | inhibitor | – | 10 min preincubation, with: FC5 substrate | 30.4 µM |
| C#CCCC(=O)N[C@H]1CSCc2ccccc2CSCCNC(=O)[C@H](CCC(=O)O)NC(=O)[C@H](Cc2ccccc2)NC(=O)[C@@H]2CCCN2C(=O)[C@H](CC(N)=O)NC1=O | EH domain-containing protein 1, EH domain (Homo sapiens, UniProt Q9H4M9) | – | – | – | 76.5 ± 4.6 µM |
| COC(=O)C=CCCC(NC(=O)c1ccncc1C(=O)O)C(=O)NC(C(=O)N1CC(=O)CC1C(=O)NC(C(=O)NC(C(N)=O)C1CCCCC1)C1CCCCC1)C(C)(C)C (centres unmarked) | Coagulation factor XIII A chain (Pig, UniProt K7GQL2) | transamidation activity, inhibitor | – | pig enzyme, with: dansylcadaverine into N,N-dimethylcasein | 0.016 ± 0.0015 µM |
| CNC(=O)c1ccc(-c2cnn3ccc(C(=O)Nc4ccc(C#N)cn4)cc23)cc1 | Phosphatidylinositol 4-kinase (Cryptosporidium parvum, UniProt Q5CVD3) | enzyme activity | – | with: ATP 3 µM | > 10 µM |
| CC[C@H](C)[C@@H]1NC(=O)[C@H](CCCNC(=N)N)NC(=O)[C@H](CC(C)C)NC(=O)[C@H](CC(C)C)NC(=O)[C@H](Cc2ccc(O)cc2)NC(=O)[C@H](CC(C)C)NC(=O)[C@H](CCCCN)NC(=O)[C@H](CCCCN)NC(=O)[C@H](Cc2c[nH]cn2)NC(=O)[C@H]([C@@H](C)CC)NC(=O)[C@H](C(C)C)NC(=O)[C@H](C(C)C)NC(=O)[C@H]([C@@H](C)CC)NC(=O)[C@H](CCCNC(=N)N)NC(=O)[C@H](Cc2ccc(O)cc2)NC(=O)CSC[C@@H](C(=O)NCC(N)=O)NC(=O)CNC1=O | Nicotinamide N-methyltransferase (NNMT, Homo sapiens, UniProt P40261) | enzyme activity, inhibitor, mass spectrometry | – | – | 1.58 µM |

Repeated from above:
| Compound | target | test | system | conditions | IC50 |
| --- | --- | --- | --- | --- | --- |
| CC(=O)N[C@@H](CCCNC(=N)N)C(=O)N[C@@H](Cc1ccc(O)cc1)C(=O)N[C@H]1CCCNC(=N)NC(=O)NCCCCNC(=O)[C@H](Cc2ccc(O)cc2)NC(=O)[C@H](CCCNC(=N)N)NC(=O)[C@H](CC(C)C)NC1=O | Neuropeptide Y receptor type 4 (NPY4R, Homo sapiens, UniProt P50391) | β-arrestin 1 recruitment, antagonist | HEK293T | with: 3 nM human pancreatic polypeptide | 5.39 ± 1.63 µM |
